Experimental data collected from several papers.
A part holds a random share of what one study measured. Substitutions count along the parent as printed.

Set 1
Target: Histone acetyltransferase KAT6A, both winged helices, GST fusion (KAT6A, Homo sapiens, UniProt Q92794, residues 1-181)
Method: protein binding microarray
Molecule type: double-stranded DNA, one strand shown
Matrix: in vitro
Concentration: not given
Notes: 8-mer, flanks averaged, mean of 2 arrays, mostly near background
Reference: not given
Reading: higher = stronger binding
Construct (chain): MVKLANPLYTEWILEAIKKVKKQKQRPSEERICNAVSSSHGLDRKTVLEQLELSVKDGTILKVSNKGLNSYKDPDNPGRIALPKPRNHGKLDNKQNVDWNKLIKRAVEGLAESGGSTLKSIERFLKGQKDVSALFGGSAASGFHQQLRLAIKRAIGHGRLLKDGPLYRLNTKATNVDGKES
| Strand | E-score |
| --- | --- |
| AGGGTCAT | -0.129 |
| CCGTGCCG | 0.306 |
| GGGGCGCA | 0.117 |
| CAATGGTC | -0.165 |
| AGTAGGAT | -0.239 |
| AACTCGCT | 0.0445 |

Set 2
Target: Ras GTPase-activating protein-binding protein 1, C-terminal RGG region (G3BP1, Homo sapiens, UniProt Q13283)
Chain of UniProt Q13283 (whole entry, looked up): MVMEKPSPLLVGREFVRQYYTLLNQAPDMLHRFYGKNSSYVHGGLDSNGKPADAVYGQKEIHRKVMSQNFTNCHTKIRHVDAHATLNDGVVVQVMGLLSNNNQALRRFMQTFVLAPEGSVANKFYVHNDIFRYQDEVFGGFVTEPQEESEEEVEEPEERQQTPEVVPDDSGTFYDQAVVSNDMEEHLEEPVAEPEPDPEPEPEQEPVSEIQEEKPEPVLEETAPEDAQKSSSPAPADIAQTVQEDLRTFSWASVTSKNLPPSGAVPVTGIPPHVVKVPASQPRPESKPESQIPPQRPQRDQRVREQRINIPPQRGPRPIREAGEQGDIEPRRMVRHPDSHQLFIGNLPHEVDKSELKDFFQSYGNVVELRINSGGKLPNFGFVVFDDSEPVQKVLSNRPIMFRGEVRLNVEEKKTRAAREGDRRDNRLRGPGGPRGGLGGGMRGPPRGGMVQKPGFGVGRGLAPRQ
Method: RNA Bind-n-Seq
Molecule type: RNA
Matrix: in vitro
Concentration: 1 µM
Notes: whole 134-nt RNA, ends assumed
Added: 150 mM KCl
Reference: input library
Reading: higher = stronger binding
Constant ends, left off below: GGGAGUUCUACAGUCCGACGAUC … UGGAAUUCUCGGGUGUCAAGG
| Strand | log2 enrichment |
| --- | --- |
| UUUCAGGGCGCCCUGCGUCCGGCAGAGGAGGCGAGCAUCCCGCUCAGGUGAUGAGGAACCCCUCGCGCACCCAGCGCAGAAGGCUGCUGC | -1.95 |
| CACAGACAACACGCACCCAGACAGACACAGAGGGAAGGGGUUGGGAUGGGGACAGGGUGCACAGCAGGGCGGGGUAGGACCCCAGCCCCU | -0.157 |
| GGCAGUAGCAGCAGCGCCGGGUCCCGUGCGGAGGUGCUCCUCGCAGAGUUGUUUCUCGAGCAGCGGCAGUUCUCACUACAGCGCCAGGAC | -1.24 |
| CAAGUCCUGUGCUACACAUCGUAUGUACCGAAUCGGAGGUUUUUUUGGAAAAAGGAAAGUAUUAUGUUACGCCGUUCGGAUCUGCACUUC | -1.87 |
| UAACUUUAGAGGAGGAUCUGAUGGAUAUGGCAGUGGACGUGGAUUUGGGGAUGGCUAUAAUGGGUAUGGAGGAGCACCUGGAGGUGGCAA | -0.64 |
| CUCAAGUCCUGUGCUACACAUCGUAUGUACCGAAUCGGUUUUUGGUGGAAAGGAAAGUAUUAUGUUACGCCGUUCGGAUCUGCACUUCCA | -1.14 |

Set 3
Target: CCNE1, cyclin fold, Cln2 fusion (human)
Method: yeast growth competition, sequencing
Matrix: yeast
Notes: strong parent motif
Reference: not given
Reading: higher = stronger binding
Parent: E2F1 docking peptide (human); PPVKRRLDFETDH
| Variant | normalised enrichment score |
| --- | --- |
| PPVKWRLDFETDH [R5W] | 0.0862 |
| PPVKRRMDFETDH [L7M] | 0.782 |
| PPVKFRLDFETDH [R5F] | 0.217 |
| PPVKRRCDFETDH [L7C] | 0.293 |

Single results of other studies
| Substance | target | assay | test system | conditions | scale | quantity | result |
| --- | --- | --- | --- | --- | --- | --- | --- |
| PhoQ, residues 284 288 289 292 302 303 TGYLSA | PhoP, residues 12 14 15 18 19 NQFFI (Escherichia coli, UniProt P23836) | Sort-seq, refers to: YFP reporter | E. coli | PhoQ-PhoP variant library, added: 10 µM Mg2+ | reference: high Mg2+ state, higher = stronger signaling | fold induction | 13.8 |

Some of these lines once more (set 3):
| Variant | normalised enrichment score |
| --- | --- |
| PPVKRRCDFETDH [L7C] | 0.293 |
| PPVKWRLDFETDH [R5W] | 0.0862 |
